{"data": "Assay results from different studies", "note": "Lines come from different studies, so protocols differ. Numbers after ± are the reported error."}
{"Structure (SMILES)": "COc1ncccc1-c1cnn2ccc(N3CCN(C(=O)OC(C)C)CC3)nc12", "system": "mouse nerve ligation model, brain", "setting": "oral, 30 mg/kg, 120 min after last dose, repeat dosing day 2", "quantity": "drug concentration", "value": "18 µM"}
{"Structure (SMILES)": "COC[C@@H](CC(C)C)NC(=O)c1ccc(C)c(C)c1", "system": "Hsd:ICR (CD-1) mouse, female, bone marrow", "setting": "oral, 2000 mg/kg, 48 h", "quantity": "PCE to total erythrocyte ratio", "value": 0.539}
{"Structure (SMILES)": "CC(C)CC(=O)OC[C@H]1O[C@@](C#N)(c2ccc3c(N)ncnn23)[C@H](O)[C@@H]1O", "system": "mouse whole blood", "setting": "5 µM, 30 min", "quantity": "remaining compound", "value": "0%"}
{"Structure (SMILES)": "COc1cc2c(Oc3ccc4[nH]c(C)cc4c3F)ccnc2cc1OCC1(N)CC1", "system": "paediatric recurrent refractory sarcoma", "setting": "10 mg", "quantity": "grade 1 or 2 AST elevation", "value": "0%"}
{"Structure (SMILES)": "C=CC(=O)N1CC[C@H](n2nc(C#Cc3cc(OC)cc(OC)c3)c3c(N)ncnc32)C1", "system": "human patients, all", "setting": "oral, dose not given, QD regimen, adverse drug reaction", "quantity": "any adverse drug reaction, any grade", "value": "100%"}
{"Structure (SMILES)": "CC[C@H](C)[C@@H]1NC(=O)[C@H](CC(C)C)NC(=O)[C@@H](CC(C)C)NC(=O)[C@H]2CCCN2C(=O)[C@H](Cc2ccc(OC)cc2)NC(=O)[C@@H](CC(C)C)NC1=O", "test": "LC/MS", "system": "horizontal lipid bilayer", "setting": "10 µM, 1 h, room temperature, 1% DMSO in PBS", "quantity": "Papp", "value": "300 ± 100 ×10⁻⁶ cm/s"}
{"Structure (SMILES)": "CCOC(=O)[C@](CC)(CCC[S+]([O-])CCOCCOCCNC(=O)OC(C)(C)C)NC(=O)c1ccc(C2CC2)c(Cc2ccc(F)cc2)n1 (stereo partly shown)", "system": "PAMPA", "quantity": "Papp", "value": "5.4 ×10⁻⁶ cm/s"}
{"Structure (SMILES)": "CCc1ccc(CC/C=C/c2ccc3c(c2)C(=O)CC3)cc1", "system": "Sprague-Dawley rat, female", "setting": "oral, 120 mg/kg/day, 14 days", "quantity": "LDH serum activity", "value": "477 U/L"}
{"Structure (SMILES)": "CN1CC[C@@H](c2c(O)cc(O)c3c(=O)cc(-c4ccc(C(F)(F)F)cc4Cl)oc23)[C@@H]1CO", "test": "item: Dyspnea", "system": "B-cell malignancies or AML", "setting": "oral, 100 mg, continuous dosing", "quantity": "patients with adverse event", "value": "12.5%"}
{"Structure (SMILES)": "C[C@@H]1NC(=O)[C@H](CCCCNC(=O)CO/N=C/C(=O)NCCCC[C@@H]2NC(=O)[C@@H](Cc3ccccc3)NC(=O)[C@H](CC(=O)O)NC(=O)CNC(=O)[C@H](CCCNC(=N)N)NC2=O)NC(=O)CNC(=O)[C@@H]2CCCN2C(=O)[C@H](CCCCNC(=O)CO/N=C/C(=O)NCCCC[C@@H]2NC(=O)[C@@H](Cc3ccccc3)NC(=O)[C@H](CC(=O)O)NC(=O)CNC(=O)[C@H](CCCNC(=N)N)NC2=O)NC(=O)[C@H](CCCCNC(=O)[C@H](CCCCN)NC(=O)[C@H](Cc2ccccc2)NC(=O)CNC(=O)CN2CCCNCCNCCCNCC2)NC(=O)[C@H](CCCCNC(=O)CO/N=C/C(=O)NCCCC[C@@H]2NC(=O)[C@@H](Cc3ccccc3)NC(=O)[C@H](CC(=O)O)NC(=O)CNC(=O)[C@H](CCCNC(=N)N)NC2=O)NC(=O)CNC(=O)[C@@H]2CCCN2C(=O)[C@H](CCCCNC(=O)CO/N=C/C(=O)NCCCC[C@@H]2NC(=O)[C@@H](Cc3ccccc3)NC(=O)[C@H](CC(=O)O)NC(=O)CNC(=O)[C@H](CCCNC(=N)N)NC2=O)NC1=O [copper-64 labelled]", "test": "PET imaging", "system": "mouse, U-87 MG tumour xenograft, kidney", "setting": "intravenous, 24 h", "quantity": "tissue uptake", "value": "4.35 ± 0.45 %ID/g"}
{"Structure (SMILES)": "CC(=O)c1c(C)c2cnc(Nc3ccc(C4CCN(CCS(C)(=O)=O)CC4)cn3)nc2n(C2CCCC2)c1=O", "system": "HR+/HER2- advanced breast cancer patients", "setting": "oral, dose not given, all grades", "quantity": "blood creatinine increased", "value": "21.1 % patients"}
{"Structure (SMILES)": "CO[C@H]1C[C@@H]2CC[C@@H](C)[C@@](O)(O2)C(=O)C(=O)N2CCCC[C@H]2C(=O)O[C@H]([C@H](C)C[C@@H]2CC[C@@H](OC(=O)NCCOCCOCCOCCOCCOCCOCCOCCOCCC(=O)N3CCc4cc(Cn5nc(-c6ccc7oc(N)nc7c6)c6c(N)ncnc65)ccc4C3)[C@H](OC)C2)C[C@@H](O)[C@H](C)/C=C(\\C)[C@@H](O)[C@@H](OC)C(=O)[C@H](C)C[C@H](C)/C=C/C=C/C=C/1C", "test": "phase 1 dose escalation, item: fatigue", "system": "advanced solid tumour patients", "setting": "intravenous, 12 mg weekly, grade ≥3", "quantity": "dose-reducing adverse events", "value": "0%"}
{"Structure (SMILES)": "CCN1[C@@H](C(=O)NC23CCC(C(=O)O)(CC2)CC3)[C@H](c2cccc(Cl)c2F)[C@]2(C(=O)Nc3cc(Cl)ccc32)C12CCCCC2", "system": "patients with advanced solid tumours", "setting": "oral, 150 mg", "quantity": "AST elevation incidence", "value": "12.5%"}
{"note": "Some of these lines once more:"}
{"Structure (SMILES)": "CC[C@H](C)[C@@H]1NC(=O)[C@H](CC(C)C)NC(=O)[C@@H](CC(C)C)NC(=O)[C@H]2CCCN2C(=O)[C@H](Cc2ccc(OC)cc2)NC(=O)[C@@H](CC(C)C)NC1=O", "test": "LC/MS", "system": "horizontal lipid bilayer", "setting": "10 µM, 1 h, room temperature, 1% DMSO in PBS", "quantity": "Papp", "value": "300 ± 100 ×10⁻⁶ cm/s"}
{"Structure (SMILES)": "CCOC(=O)[C@](CC)(CCC[S+]([O-])CCOCCOCCNC(=O)OC(C)(C)C)NC(=O)c1ccc(C2CC2)c(Cc2ccc(F)cc2)n1 (stereo partly shown)", "system": "PAMPA", "quantity": "Papp", "value": "5.4 ×10⁻⁶ cm/s"}
